Measured values collected from several papers.
Numbered parts are unrelated; each lists some results of a single study. Positions count from the first letter of the parent shown.

Block 1 — technique: protein binding microarray; molecule type: double-stranded DNA, one strand shown; sample: in vitro; concentration: not given; baseline: not given; direction: higher = stronger binding; measurement: E-score
Target: Histone acetyltransferase KAT6A, winged helix 1, GST fusion (KAT6A, Homo sapiens, UniProt Q92794, residues 1-85)
Notes: 8-mer, flanks averaged, mean of 2 arrays, mostly near background
Target sequence (chain): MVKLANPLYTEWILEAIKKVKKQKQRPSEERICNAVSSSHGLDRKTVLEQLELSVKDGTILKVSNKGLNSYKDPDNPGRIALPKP
ATGGAAGG: -0.0987
GGCTCATA: 0.0086
AGAAAACT: -0.248
ACTCCCCG: 0.271
GTTACTAA: -0.0479
ATTCCCGC: 0.374
TCCTTCAA: -0.327
CATTATAC: -0.00035
CCTAAACA: -0.0334
GGAGCAAC: 0.0655
ACTTAGAG: -0.184
CCTGTTTA: 0.051
ATTGGAGG: -0.141
GCGTACAC: 0.184
AATATAAC: -0.166
GTTTATCA: 0.0297
CGGTATCC: 0.29
CCAACAAG: -0.272
AGTAACTC: -0.126
CCGGAGGA: 0.0165
ATAAAGTC: -0.0472
AGCGCCCA: 0.0592
CCATTGCC: 0.0147
CCATCGGG: 0.17
AGTCAATC: -0.133

Block 2 — target: UBE2T UBC core domain (UniProt Q9NPD8); technique: yeast two-hybrid; sample: yeast; notes: mostly zero background; baseline: not given; direction: higher = stronger interaction; measurement: lacZ reporter activity
B1: RNF103 RING domain (UniProt O00237); chain WPADMLHCTECVVCLENFENGCLLMGLPCGHVFHQNCIVMWLAGGRHCCPVCRWPSYKKKQPY
B2: HLTF RING domain (UniProt Q14527); chain LILSSGSDEECAICLDSLTVPVITHCAHVFCKPCICQVIQNEQPHAKCPLCRNDIHEDNLLE
B3: BFAR RING domain (UniProt Q9NZS9); chain GPQISVSEFSCHCCYDILVNPTTLNCGHSFCRHCLALWWASSKKTECPECREKWEGFPKVS
B4: ZNRF4 RING domain (UniProt Q8WWF5); chain VRTFTWHNDLCAICLDEYEEGDQLKILPCSHTYHCKCIDPWFSQAPRRSCPVCKQSVAATEDSF
B5: RNF182 RING domain (UniProt Q8N6D2); chain AESQASDELECKICYNRYNLKQRKPKVLECCHRVCAKCLYKIIDFGDSPQGVIVCPFCRFETCLPDDEV
B6: VPS8 RING domain (UniProt Q8N3P4); chain TRGLNPKQDYCSICLQQYKRRQEMADEIIVFSCGHLYHSFCLQNKECTVEFEGQTRWTCYKCSSSNKVGKLSE
B7: TRIM11 RING domain (UniProt Q96F44); chain LSTNLQEEATCAICLDYFTDPVMTDCGHNFCRECIRRCWGQPEGPYACPECRELSPQRNLRP
Residues (chain): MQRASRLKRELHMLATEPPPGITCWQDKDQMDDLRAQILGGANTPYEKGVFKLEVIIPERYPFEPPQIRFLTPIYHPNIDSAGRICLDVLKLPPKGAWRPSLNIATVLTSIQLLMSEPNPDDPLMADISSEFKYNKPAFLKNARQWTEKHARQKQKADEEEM
LEALSSDFLACKICLEQLRAPKTLPCLHTYCQDCLAQLADGGRVRCPECRETVPVPPEGV (TRIM56 RING domain (UniProt Q9BRZ2)): 0
B1 (RNF103 RING domain): 0
B2 (HLTF RING domain): 0
DDVLTKDAGECVICLEELLQGDTIARLPCLCIYHKSCIDSWFEVNRSCPEHPAD (ZNRF1 RING domain (UniProt Q8ND25)): 0
LVKDFNPYITCYICKGYLIKPTTVTECLHTFCKTCIVQHFEDSNDCPRCGNQVHETNPLE (PCGF5 RING domain (UniProt Q86SE9)): 0
B3 (BFAR RING domain): 0
B4 (ZNRF4 RING domain): 0
B5 (RNF182 RING domain): 0
B6 (VPS8 RING domain): 0
ASEEEFQFLRCQQCQAEAKCPKLLPCLHTLCSGCLEASGMQCPICQAPWPLGADTP (PML RING domain (UniProt P29590)): 0
B7 (TRIM11 RING domain): 0

Block 3 — target: CCND1, cyclin fold, Cln2 fusion (human); technique: yeast growth competition, sequencing; sample: yeast; notes: weak parent motif; baseline: not given; direction: higher = stronger binding; measurement: normalised enrichment score
Starting sequence: BRCA2 docking peptide (human); PSIKRNLLNEFDR; partner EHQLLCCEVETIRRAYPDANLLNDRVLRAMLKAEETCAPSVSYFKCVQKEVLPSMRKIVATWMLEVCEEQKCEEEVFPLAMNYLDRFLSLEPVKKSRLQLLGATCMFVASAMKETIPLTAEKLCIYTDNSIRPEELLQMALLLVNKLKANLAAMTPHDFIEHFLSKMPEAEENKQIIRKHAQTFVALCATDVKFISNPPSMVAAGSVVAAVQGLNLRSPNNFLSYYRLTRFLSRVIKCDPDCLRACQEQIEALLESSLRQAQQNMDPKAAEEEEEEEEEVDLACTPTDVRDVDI
MSIKRNLLNEFDR [P1M]: -0.0475
PSIKRNLLNEFKR [D12K]: 0.426
PSFKRNLLNEFDR [I3F]: -0.00441
PSIKRNLLNEFDW [R13W]: 0.993
PSIKRNLLNEFDS [R13S]: 1.02
PCIKRNLLNEFDR [S2C]: 0.377
PSIIRNLLNEFDR [K4I]: -0.149
PSIKRNLLNEFDG [R13G]: 0.968
LSIKRNLLNEFDR [P1L]: 0.0522
PSIKRNLLNEGDR [F11G]: 0.625
PSLKRNLLNEFDR [I3L]: 0.849
PAIKRNLLNEFDR [S2A]: 0.259
PSIKRNLFNEFDR [L8F]: 0.543
VSIKRNLLNEFDR [P1V]: 0.879
PSIKRNLLNEFNR [D12N]: 0.542
PSIKRNLCNEFDR [L8C]: 0.236
PSIKRNLLNELDR [F11L]: 0.0859
PHIKRNLLNEFDR [S2H]: -0.0895
PSIKRNLLMEFDR [N9M]: 0.158

Block 4 — target: FOSB, bZIP domain (human); technique: DHFR protein complementation; sample: yeast; baseline: wild-type JUN-FOS pair; direction: higher = stronger binding; measurement: binding fitness
Notes: single substitutions, most at no-binding floor
Starting sequence: JUN, bZIP domain (human); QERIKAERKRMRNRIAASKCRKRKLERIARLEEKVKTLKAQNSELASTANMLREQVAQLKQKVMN; partner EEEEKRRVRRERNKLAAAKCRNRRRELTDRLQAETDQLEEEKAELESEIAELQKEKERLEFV
N42I: -0.0201 natural log
M51A: 0.0131 natural log
A29V: -0.415 natural log
Q55T: -0.142 natural log
R30E: 0.14 natural log
S47N: -0.0862 natural log
N42A: -0.582 natural log
A40T: -0.00947 natural log
K39I: -0.567 natural log
A40V: -0.121 natural log
N42C: 0.0709 natural log
R53L: -0.834 natural log
R30A: 0.19 natural log
T48E: -0.225 natural log
T37I: -0.121 natural log

Block 5 — technique: DHFR PCA, deep sequencing; sample: yeast; together with: (+)-ABA 17 µM; baseline: wild-type fitted maximum; direction: higher = stronger binding; measurement: relative binding score
Target: ABI1, truncated, D143A, DHFR fusion (Arabidopsis thaliana)
Notes: methotrexate growth selection, single substitutions
Starting sequence: PYL1, truncated, DHFR fusion (Arabidopsis thaliana); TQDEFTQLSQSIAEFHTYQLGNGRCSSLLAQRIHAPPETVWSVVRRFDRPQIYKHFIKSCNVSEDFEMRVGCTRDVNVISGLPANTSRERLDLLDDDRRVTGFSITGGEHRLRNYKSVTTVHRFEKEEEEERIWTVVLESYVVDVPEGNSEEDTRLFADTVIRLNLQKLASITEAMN; partner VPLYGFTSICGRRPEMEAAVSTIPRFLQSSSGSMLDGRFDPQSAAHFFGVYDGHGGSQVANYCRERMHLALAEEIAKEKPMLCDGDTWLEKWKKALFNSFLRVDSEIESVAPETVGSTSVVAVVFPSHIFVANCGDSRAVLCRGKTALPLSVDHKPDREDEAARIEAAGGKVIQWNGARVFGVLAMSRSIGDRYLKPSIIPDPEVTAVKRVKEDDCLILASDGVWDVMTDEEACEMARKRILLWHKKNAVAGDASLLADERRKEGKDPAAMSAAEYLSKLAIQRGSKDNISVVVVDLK
T154A: 53.1%
H55W: 78.8%
V70P: 85.6%
R132M: 82.7%
V136R: -0.736%
D96G: 14.1%
T173C: 95.1%
V121A: 30.9%
S171Y: 77.5%
M176D: 83.9%
S140I: -9.98%
N165T: -3.75%

Excerpt of the above (block 3):
PSIKRNLLNEFDG [R13G]: 0.968
PSIKRNLCNEFDR [L8C]: 0.236
PSIKRNLLNEFNR [D12N]: 0.542
MSIKRNLLNEFDR [P1M]: -0.0475
PHIKRNLLNEFDR [S2H]: -0.0895
PSIKRNLLNEFKR [D12K]: 0.426
PSIIRNLLNEFDR [K4I]: -0.149
PSLKRNLLNEFDR [I3L]: 0.849
LSIKRNLLNEFDR [P1L]: 0.0522
VSIKRNLLNEFDR [P1V]: 0.879
PSIKRNLFNEFDR [L8F]: 0.543
PAIKRNLLNEFDR [S2A]: 0.259
PSIKRNLLNEFDS [R13S]: 1.02
